Results of several laboratories.
A part holds a random share of what one study measured.

Sample 1
Target: Histone acetyltransferase KAT6A, winged helix 1, GST fusion (KAT6A, Homo sapiens, UniProt Q92794, residues 1-85)
Technique: protein binding microarray
Form: double-stranded DNA, one strand shown
Sample: in vitro
Tested at: not given
Setting: 8-mer, flanks averaged, mean of 2 arrays, mostly near background
Relative to: not given
Direction: higher = stronger binding
Quantity: E-score
Construct (chain): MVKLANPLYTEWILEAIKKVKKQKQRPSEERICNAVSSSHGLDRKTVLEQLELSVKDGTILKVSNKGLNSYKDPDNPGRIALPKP
TACATACA: -0.0783
TATCCCCA: -0.251
GCGGCAGA: 0.377
ATTCGGCG: 0.241
ATCTGAGA: -0.266
GGCCCCGA: 0.179
CGCAAGGA: -0.0115
GTTCTTCA: -0.0786
ATGAAATG: -0.272
GATCGAGA: -0.225
CACATAGC: 0.0897
AGGGGTAT: -0.149
AGCATATA: -0.187
GTAAAAAC: -0.193
TGTAAACA: -0.209
AGATTCAC: -0.176
CGTCTAAG: 0.0646
AAGCGCGC: 0.44
TCCTTGAA: -0.000135
CCTACGGC: 0.346
ACGGAACT: 0.154
GAGACTCC: -0.0188
CCAGTCTC: -0.188
AGTTGCAT: -0.15
ACATGCGA: 0.0683

Sample 2
Target: Interferon regulatory factor 5, full length, phosphomimetic (IRF5, Homo sapiens, UniProt Q13568-2, residues 1-514, S451D/S453D/S456D/S462D)
Technique: protein-binding microarray
Form: double-stranded DNA, one strand shown
Sample: in vitro
Tested at: 940 nM top
Setting: 60-bp whole probe
Added: salmon DNA 0.4 mg/ml
Relative to: random background probes
Direction: higher = stronger binding
Quantity: fitted relative affinity
All sequences stand within: GCCTAGCAC … GTCTTGATTCGCTTGACGCTGCTG
TTAAGTTTCGGTATCGGTTAGTGCTAG: 15.3 z-score
TCAGTTCTCCCTTTCAGACTGTGCTAG: 1.05 z-score
GTGTATATGGACGTCTGAAGGTGCTAG: -0.529 z-score
GACGATGTCGGGTTTCGAGACGTGCTA: 1.63 z-score
GACGGTTTCCGTATCCTGACGTGCTAG: 2 z-score
TCAGTTTTACAGGTTCTCACTGTGCTA: 0.562 z-score
TCAGATTTCAGGAATTGAACTGTGCTA: -0.444 z-score
GTAGGACTGGACTATCGGTTAGTGCTA: -0.395 z-score
AGATGTGTCTTAAATAGGGCAGTGCTA: -0.58 z-score
GACGAACTGAGTTTCCAGACGTGCTAG: -0.472 z-score
TTAGATTTCAGTCTCAATTAGTGCTAG: 1.56 z-score
GACGGTATCCTACTGCCGACGTGCTAG: 0.348 z-score
GACGGTTTCCTTTCCCTGCCGTGCTAG: 2.04 z-score
TTAGGTATCGACTATCGGTCAGTGCTA: 5.94 z-score
TTAGATTTCGGGTATCGCTTAGTGCTA: 2.18 z-score
TTAGGACTGGGTATCGGTCAGTGCTAG: 3.16 z-score
TTTGGTCTCCTTCTCCTTTAGTGCTAG: 1.14 z-score
TTAGGACTGGGTTTCGGGTAGTGCTAG: 3.91 z-score

Sample 3
Target: Ras GTPase-activating protein-binding protein 1, RRM domain (G3BP1, Homo sapiens, UniProt Q13283)
Sequence of UniProt Q13283 (whole entry, looked up): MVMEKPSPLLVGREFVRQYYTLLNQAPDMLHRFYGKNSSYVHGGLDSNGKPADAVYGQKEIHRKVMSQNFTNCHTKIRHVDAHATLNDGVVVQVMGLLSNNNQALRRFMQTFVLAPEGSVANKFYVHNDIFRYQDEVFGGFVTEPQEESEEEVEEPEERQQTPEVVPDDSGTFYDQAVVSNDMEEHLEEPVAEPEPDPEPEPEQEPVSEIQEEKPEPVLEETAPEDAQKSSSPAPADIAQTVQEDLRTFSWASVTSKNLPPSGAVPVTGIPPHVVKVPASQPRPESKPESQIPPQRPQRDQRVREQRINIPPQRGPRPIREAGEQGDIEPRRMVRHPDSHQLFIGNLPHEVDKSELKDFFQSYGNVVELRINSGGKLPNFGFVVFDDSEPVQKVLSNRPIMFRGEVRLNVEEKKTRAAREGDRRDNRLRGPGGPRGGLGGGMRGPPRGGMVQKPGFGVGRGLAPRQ
Technique: RNA Bind-n-Seq
Form: RNA
Sample: in vitro
Tested at: 1 µM
Setting: whole 134-nt RNA, ends assumed
Added: 150 mM KCl
Relative to: input library
Direction: higher = stronger binding
Quantity: log2 enrichment
All sequences stand within: GGGAGUUCUACAGUCCGACGAUC … UGGAAUUCUCGGGUGUCAAGG
CACAGACAACACGCACCCACACAGACACAGAGGGAAGGGGCUGGGAUGGGGACAGGGUGCACAGCAGGGCGGGGUAGGACCCCAGCCCCU: -0.0981
GCAGGAAGUAAAAACAAAUGAAAAUGCUUCGGAUAGUGGCAGGGGUGGGGGUUGCUAAGGAAAGGGUGGGAUGGGAGUGGGUAAAGAGUU: 1.14
UGGCCCUGGUGGCAUGCGGGGAGGAAGAGGUGGCCUCAUGGAUCGUGGUGGUCCCGGUGGAAUGUUCAGAGGUGGCCGUGGUGAAGACAG: 1.8
CACAGACAACACGCACCCACACAGACACAGAGGGAAGGGGUUGGGAUGGGGACAGGGUGCACAGCAUGGCGGGGUAGGACCCCAGCCCCU: 0.00186
AGUCCUGUGCUACACAUCGUAUGUACCGAAUCGGCCCCGGGGCCCCGGGCCCCGGGGAAAGUAUUAUGUUACGCCGUUCGGAUCUGCACU: -1.21
GUCCUGUGCUACACAUCGUAUGUACCGAAUCGGGAAAAAAAGGGUGGGUUUUUUUGGGAAAGUAUUAUGUUACGCCGUUCGGAUCUGCAC: 0.361
CACAGACAACACGCACCCACACAGACACAGAGGGAAGGAGUUGGGAUGGGGACAGGGUGCACAGCAGGGCGGGGUAGGACCCCAGCCCCU: -0.0832
CCUGUGCUACACAUCGUAUGUACCGAAUCGGAAAAAAAGGGAAAAAAAGGGAAAAAAAGGAAAGUAUUAUGUUACGCCGUUCGGAUCUGC: 0.0265
CUCAACGUUGACAGUAAUGAACAAGGCUCCUAUGUAGUGGCCAUGGAAACCUUUACCAACUUAGGACCCAUUGUCGAUAUGUGCGUGGUG: -0.188
UGGCCCUGGUGGCAUGCGGGGAGGAAGAGGUGGCCUCAUGGAUUGUGGUGGUCCCGGUGGAAUGUUCAGAGGUGGCCGUGGUGGAGACAG: 0.98
UGGCCCUGGUGGCAUGCGGGGAGGAAGAGGUGGCCUCAUGGAUCGUGGUGGUCCCGGUGGAAUGUUCAGAGGUGGACGUGGUGGAGACAG: 2.21
UUCAUGAGGACCUCCGCCUGCUCUUGGAGACCCACCUGCCGUCCAAAAAGAAGAAAGUACUCUUGGGAGUUGGGGAUCCCAAGAUUGGUG: -0.0659
AAGUCCUGUGCUACACAUCGUAUGUACCGAAUCGGGUUUUUUUGGGUGGGAAAGGGAAAGUAUUAUGUUACGCCGUUCGGAUCUGCACUU: 0.413
CUGUGCUACACAUCGUAUGUACCGAAUCAAAUUUUUUUAAACCCCCCCAAAUUUUUUUAAAAAAGUAUUAUGUUACGCCGUUCGGAUCUG: -0.986

Sample 4
Target: Sal-like protein 4, full length isoform B (SALL4, Homo sapiens, UniProt Q9UJQ4-2, residues 1-616)
Technique: universal PBM
Form: double-stranded DNA, one strand shown
Sample: in vitro
Tested at: not given
Setting: 8-mer, flanks averaged, mean of replicates
Direction: higher = stronger binding
Quantity: E-score
ATCGCGAC: -0.0915
AGGAGGTG: -0.176
GTTTCTTA: 0.051
GTGTTAAC: 0.138
TACCCGAA: 0.138
CCTCCTAG: -0.146
CTACGCAC: 0.00778
CTCGCAGC: -0.221
CAGGCTCG: -0.236
ACAAGTCT: 0.143
AAAGAGGG: -0.0707
AAAATTTG: 0.299
ATCAGACC: 0.0124
ATGGTAAA: 0.203
CGTACGAA: 0.0678
CCAAGTAG: -0.233
CCAATACC: -0.106
CGAATCGA: 0.0147
AAGTAGTG: 0.0245
AAGTTAAG: -0.051

Sample 5
Target: RING finger protein unkempt homolog, zinc fingers 1-6, GST-SBP tag (UNK, Homo sapiens, UniProt Q9C0B0, residues 30-357)
Sequence of UniProt Q9C0B0 (30-357, looked up): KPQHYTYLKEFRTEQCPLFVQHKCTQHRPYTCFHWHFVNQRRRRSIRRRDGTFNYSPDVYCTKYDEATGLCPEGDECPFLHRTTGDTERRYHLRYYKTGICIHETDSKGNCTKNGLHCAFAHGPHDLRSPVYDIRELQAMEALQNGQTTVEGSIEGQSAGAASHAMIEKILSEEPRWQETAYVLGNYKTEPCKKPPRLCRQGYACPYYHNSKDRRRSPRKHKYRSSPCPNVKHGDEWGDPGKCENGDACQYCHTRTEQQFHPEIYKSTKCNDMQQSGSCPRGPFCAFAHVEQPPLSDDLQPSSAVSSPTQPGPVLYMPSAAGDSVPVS
Technique: RNA Bind-n-Seq
Form: RNA
Sample: in vitro
Tested at: not given
Setting: RNA with constant flanks, human and mouse sites, ends assumed
Relative to: input RNA pool
Direction: higher = stronger binding
Quantity: bound/input enrichment
All sequences stand within: GGGAGUUCUACAGUCCGACGAUC … CAACAGAGGAUUGAGCAUCA
UUUUUUUUUUCUGUGUAAAUCAUCAACUAUAAGAAGAAACUAUGGGACUCUAAGCCUGGCUUUAGAGAAUUUACAGUGGACAAAUAGGUUUCAUCAAACCAGUUUUUAAUCAUUCUGACU: 0.61 ratio
GCUUACAAAGCUGCUAGUGACAUUGCGAUGACAGAACUUCCUCCAACGCACCCCAUUCGUUUAGGUCUUGCUCUCAACUUUUCCGUAUUCUACUAUGAAAUUCUUAAUUCCCCCGACCGU: 1.22 ratio
AAUACUACAGUUGAAAGUUUGAUACAAAAAUUUGCUGAGUCAAAAGGCACUGGGAAGGAAAGACCUGGCCUCAUUGAAUUUGAAGAAUGUGACACUGCUAGUGCAGUUGAAGGUAUAAAA: 0.217 ratio
AAGGAUUCUCUGCCUCGCUUUGUGCGCUCUGAGUUUUAUCAGGAGUUAAUCAAGUAGUAAUUUAGCCAGGCUAUGAAAUCAUCCUGUGAGUUAUUUCCUCCAUAAUAACCCUGCAUUUCC: 0.57 ratio
GCACAGCAACUCUUACAGUCUUAGGUGUUACCAAGAACAGAUCUCAACUGUAAGAGUUGUCAGUACAGGUUUUCUUUUCCUUUUGUUUUUGUUAUUGUUUUUUUUUUUUUUUUUUUUUUU: 7.89 ratio
CUUGAUGAUGAUGAGUGUCCUUUACAAAUCUUCAGGGAAUGGCCAAGUGACAAAGGGAUUUUAGUCUUUCAGUUGAAGAGGAGGCCACCAGACCACAUCCCAAAGAAAACCAAGAAACAC: 0.291 ratio
AGUUUGUGCCGUUGCCCUUUCCCCAUAUGCCACUAGUGUGUAGGCAGAUGUCUGAGUCUCUAGGUGGUUUCUCCAUUUUAUAGCAGUUAGCUUUGAUGACCCUACUCCACGAAAAAUAAA: 0.774 ratio
GAAGCAAUAAAAAAGAAGCUUGGAGAAUUAACAGGGACAGUGAAGGAGAGUCUUGAUGAAGUCAGUAAGAGUGACCUUGGCCGGAAGAUCAAGGAGGGGGUAGAAGAGGCCGCCAGGACA: 0.565 ratio
UUUGGGCAAUGCUAUGAGUUUCUCACUCUUCAUACAGUGAAAAAGUACUUUCUUCCAAUAAUAGAAAUGGUUCCACAGUUUUUAGAAAACUUAACUGAUGAAGAACUGAAAAAAGAAGCA: 0.779 ratio
GUGUGUGGGGUAGCCUUGGCCCCUGCCUUGGCCUUGCCUCUCUUCCCUGUCACCUGCCCCUAGUUAUUUUUUUUUUGACCACCACGUGAUUAUGGUCGGUGCUGCCUCCCCCCCGACCUG: 87.1 ratio
GCUGCGGGGCUGGGGCUGGGGCUACCCGCCGCGGACUCCCGGGGUCACUACCAGCUGCUGCUGUCAGGCCGGGCCCUGGCCGACCGCUACCGGAGGAUUUAUACCGCUGCGCUCAAUGAC: 0.171 ratio

For quick reference, copied from above (sample 3):
CACAGACAACACGCACCCACACAGACACAGAGGGAAGGGGUUGGGAUGGGGACAGGGUGCACAGCAUGGCGGGGUAGGACCCCAGCCCCU: 0.00186
UGGCCCUGGUGGCAUGCGGGGAGGAAGAGGUGGCCUCAUGGAUCGUGGUGGUCCCGGUGGAAUGUUCAGAGGUGGCCGUGGUGAAGACAG: 1.8
AAGUCCUGUGCUACACAUCGUAUGUACCGAAUCGGGUUUUUUUGGGUGGGAAAGGGAAAGUAUUAUGUUACGCCGUUCGGAUCUGCACUU: 0.413
CUCAACGUUGACAGUAAUGAACAAGGCUCCUAUGUAGUGGCCAUGGAAACCUUUACCAACUUAGGACCCAUUGUCGAUAUGUGCGUGGUG: -0.188
AGUCCUGUGCUACACAUCGUAUGUACCGAAUCGGCCCCGGGGCCCCGGGCCCCGGGGAAAGUAUUAUGUUACGCCGUUCGGAUCUGCACU: -1.21
CACAGACAACACGCACCCACACAGACACAGAGGGAAGGGGCUGGGAUGGGGACAGGGUGCACAGCAGGGCGGGGUAGGACCCCAGCCCCU: -0.0981
GUCCUGUGCUACACAUCGUAUGUACCGAAUCGGGAAAAAAAGGGUGGGUUUUUUUGGGAAAGUAUUAUGUUACGCCGUUCGGAUCUGCAC: 0.361
GCAGGAAGUAAAAACAAAUGAAAAUGCUUCGGAUAGUGGCAGGGGUGGGGGUUGCUAAGGAAAGGGUGGGAUGGGAGUGGGUAAAGAGUU: 1.14
CUGUGCUACACAUCGUAUGUACCGAAUCAAAUUUUUUUAAACCCCCCCAAAUUUUUUUAAAAAAGUAUUAUGUUACGCCGUUCGGAUCUG: -0.986
UGGCCCUGGUGGCAUGCGGGGAGGAAGAGGUGGCCUCAUGGAUUGUGGUGGUCCCGGUGGAAUGUUCAGAGGUGGCCGUGGUGGAGACAG: 0.98
UUCAUGAGGACCUCCGCCUGCUCUUGGAGACCCACCUGCCGUCCAAAAAGAAGAAAGUACUCUUGGGAGUUGGGGAUCCCAAGAUUGGUG: -0.0659
